{"data": "Measurements from different studies", "target": "Mitogen-activated protein kinase kinase kinase kinase 5 (MAP4K5, Homo sapiens, UniProt Q9Y4K4)", "sequence of UniProt Q9Y4K4 (whole entry, looked up)": "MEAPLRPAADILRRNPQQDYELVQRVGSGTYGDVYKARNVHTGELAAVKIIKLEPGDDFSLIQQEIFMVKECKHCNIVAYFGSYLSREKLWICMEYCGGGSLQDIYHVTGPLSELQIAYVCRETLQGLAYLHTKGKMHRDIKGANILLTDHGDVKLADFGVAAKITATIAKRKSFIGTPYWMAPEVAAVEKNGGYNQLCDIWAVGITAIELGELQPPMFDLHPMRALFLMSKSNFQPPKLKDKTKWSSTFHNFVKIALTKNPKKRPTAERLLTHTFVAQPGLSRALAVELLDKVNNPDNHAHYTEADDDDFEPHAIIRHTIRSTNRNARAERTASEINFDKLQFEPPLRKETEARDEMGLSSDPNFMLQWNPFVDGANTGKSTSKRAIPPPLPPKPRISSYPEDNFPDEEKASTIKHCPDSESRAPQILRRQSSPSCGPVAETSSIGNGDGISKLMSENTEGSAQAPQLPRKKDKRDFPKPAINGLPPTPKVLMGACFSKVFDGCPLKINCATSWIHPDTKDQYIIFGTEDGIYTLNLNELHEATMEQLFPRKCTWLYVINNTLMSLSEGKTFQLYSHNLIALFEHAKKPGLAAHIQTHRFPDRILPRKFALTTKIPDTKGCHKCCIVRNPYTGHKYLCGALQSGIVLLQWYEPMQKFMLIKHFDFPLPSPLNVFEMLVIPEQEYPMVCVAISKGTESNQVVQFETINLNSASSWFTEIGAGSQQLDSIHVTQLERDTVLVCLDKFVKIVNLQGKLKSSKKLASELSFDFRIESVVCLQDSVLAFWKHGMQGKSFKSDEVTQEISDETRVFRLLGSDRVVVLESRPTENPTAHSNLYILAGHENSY"}
{"SMILES": "NC(=O)C[C@H]1CCc2sc3ncnc(O[C@H]4CC[C@H](N5CCOCC5)CC4)c3c21", "test": "enzyme activity, inhibitor", "conditions": "10 µM", "endpoint": "inhibition", "result": "12%"}
{"SMILES": "C=CC(=O)Nc1cccc(-c2cnc3[nH]cc(C(=O)NC(C)(C)C)c3n2)c1", "test": "enzyme activity, inhibitor", "conditions": "0.1 µM", "endpoint": "inhibition", "result": "50%"}
{"SMILES": "CCN1CCN(Cc2ccc(NC(=O)c3ccc(C)c(NC(=O)c4cncc(-c5cccs5)c4)c3)cc2C(F)(F)F)CC1", "test": "binding, competition with immobilised ligand", "conditions": "1 µM", "endpoint": "remaining binding", "result": "27%"}
{"SMILES": "COc1cc(Nc2nccc(-c3cnn4nc(OC)ccc34)n2)cc(C(F)(F)F)c1", "test": "binding, competition with immobilised ligand", "conditions": "1 µM", "endpoint": "remaining binding", "result": "92%"}
{"SMILES": "Cc1cccc(O[C@H]2CCC[C@@H](C(C)CNCc3ccncc3)C2)c1 (relative stereo)", "test": "enzyme activity, inhibitor", "conditions": "1 µM", "endpoint": "inhibition", "result": "-2%"}
{"SMILES": "C=CC(=O)N1CCCC(n2c(=O)c3ncccc3n(Cc3ccc(Oc4ccccc4)cc3)c2=O)C1 (stereo not shown)", "test": "cell-free assay, competition with immobilised ligand", "conditions": "1 µM", "endpoint": "remaining binding", "result": "72%"}
{"SMILES": "Nc1ncc2c(n1)-c1c([nH]c3ccc(C4=CCOCC4)cc13)CCC2", "test": "binding, competition with immobilised ligand", "conditions": "1 µM", "endpoint": "remaining binding", "result": "100%"}
{"SMILES": "CCN1CCN(Cc2ccc(C(=O)Nc3ccc(C)c(NCc4cnc5[nH]ccc5c4OC)c3)cc2C(F)(F)F)CC1", "test": "binding, competition with immobilised ligand", "conditions": "1 µM", "endpoint": "remaining binding", "result": "2.4%"}
{"SMILES": "CC(C)=CC1OC(C)(C)C2C=C3C(=O)C(Cl)=CC(O)C3C3C(O)C4OC4C(=O)C132 (stereo not shown)", "test": "cell-free assay, competition with immobilised ligand", "conditions": "10 µM", "endpoint": "remaining binding", "result": "91%"}
{"SMILES": "Cc1cnc2nc1Nc1cccc(c1)COC/C=C/COCc1cc(ccc1OCCN1CCOCC1)N2", "test": "binding", "conditions": "0.1 µM", "endpoint": "remaining binding", "result": "100%"}
{"SMILES": "CNC1C[S+]2CC[S+]3CC[S+](C1)[Ru-4]321([N]=C=S)[n]2c3ccc(OC)cc3c3c4c(c5cc(F)c[n+]1c5c32)C(=O)NC4=O (stereo not shown)", "test": "KinomeScan", "conditions": "0.1 µM", "how to read": "reference: untreated", "endpoint": "remaining binding", "result": "100%"}
{"SMILES": "C=CC(=O)N1CCc2ccc(-n3c(=O)ccc4cnc5ccc(-c6cnn(C)c6)cc5c43)cc21", "test": "KINOMEscan", "conditions": "1 µM", "how to read": "reference: DMSO control", "endpoint": "remaining binding", "result": "100%"}
{"SMILES": "CS(=O)(=O)Nc1cccc(-c2csc3cnc(Nc4ccc(N5CCN(CCCCCOc6cccc7c6C(=O)N(C6CCC(=O)NC6=O)C7=O)CC5)cc4)nc23)c1 (stereo not shown)", "test": "probe labelling, inhibitor, KiNativ chemoproteomics", "system": "MOLT-4", "conditions": "1 µM", "endpoint": "inhibition", "result": "-9.93%"}
